Assay results from different studies.

Compound	host	sample	route	dose	notes	Cmax
O=C(OC(C(F)(F)F)C(F)(F)F)N1CCC(CNS(=O)(=O)c2ccc(Cl)cc2)CC1	male SCID mouse	brain	oral	10 mg/kg	–	2330 ng/mL
O=C1CCC(N2C(=O)c3ccc(N4CCC(C(=O)N5CCC(CCN6CCC(CNC(=O)c7cccc(-c8noc(C(F)(F)F)n8)c7)(c7nc(-c8ccccc8)cs7)CC6)CC5)CC4)cc3C2=O)C(=O)N1 (stereo not shown)	CD-1 mouse	plasma	intraperitoneal	30 mg/kg	–	2600 ng/mL
COC1C(c2ccc(Cl)c(Cc3ccc(OC4CCOC4)cc3)c2)OC(CO)C(O)C1O (stereo not shown)	CD-1 mouse	plasma	intravenous	5 mg/kg	–	6670 ng/mL
COC(=O)C1=CNC=C(C(=O)OC)C1c1ccc(F)c(C(F)(F)F)c1	male C57BL/6 mouse	plasma	oral	50 mg/kg	–	2570 ng/mL
CC[C@H](C)/C=C/C=C/C=C/C(O)=C/C(=O)C(Cl)(Cl)Cl	female C57BL/6 mouse	plasma	oral	25 mg/kg	–	2.4 µM
Oc1ccc([C@@H]2Oc3ccc(O)cc3[C@@H]3CCC[C@@H]32)cc1	male C57BL/6 mouse	plasma	intravenous	1 mg/kg	–	4 µM
Cc1cc(NCC(=O)C(C)(C)C)c2nc(N3CCOC[C@H]3C)cc(=O)n2c1	C57BL/6 mouse	plasma	intraperitoneal	10 mg/kg	single dose	2260 ng/mL
CC[C@H](C)/C=C/C=C/C=C/C(O)=C/C(=O)C(F)(F)Cl	female C57BL/6 mouse	plasma	oral	25 mg/kg	–	17 µM
Cc1cc(C(=O)N[C@@H](CC(=O)NC(C)(C)C)C(=O)NCCNC(=O)c2cccc(-n3cccn3)c2)no1	mouse	plasma	oral	1 mg/kg	–	3.4 ng/mL
COc1cnc2cccc(N3CCc4c(cc(Cn5ccnc5)cc4-c4cn(C)nc4C(F)(F)F)C3=O)c2c1	male CD-1 mouse	plasma	intraperitoneal	100 mg/kg	–	30200 ng/mL
O=C(C1CC1)N1CCC=C(c2cc3c(Nc4cc5ncsc5cc4F)ncnc3s2)C1	mouse	plasma	oral	10 mg/kg	–	1870 ng/mL
Cn1ccc(-c2cc(Cl)c(Cl)c3[nH]c4c(c23)CN(C(=O)CO)CC4)n1	C57BL/6 mouse	blood	oral	100 mg/kg	–	20.5 µM
CC(=O)N1CCC=C(c2cc3c(Nc4cc5ncsc5cc4F)ncnc3s2)C1	mouse	plasma	oral	10 mg/kg	–	2460 ng/mL
O=C(O)c1ccc(/C=C2\SC(=S)N(Cc3cccc(C(F)(F)F)c3)C2=O)cc1	C57BL/6 mouse	blood	oral	10 mg/kg	–	3250 ng/mL
O=S(=O)(Nc1ccc(OC(F)(F)F)cc1)N1CCCC(C2c3ccc(F)cc3CCc3cc(F)ccc32)C1 (stereo not shown)	mouse	plasma	oral	30 mg/kg	–	8860 ng/mL
O=S(=O)(N[C@H]1CCC[C@@H](N2c3ccccc3CCc3ccccc32)[C@@H]1O)c1ccc(OC(F)(F)F)cc1	mouse	plasma	intravenous	1 mg/kg	–	1480 ng/mL
COc1ccccc1/C=C/CNCC(O)COc1ccc(Nc2ccccc2)cc1 (racemic)	mouse	plasma	intraperitoneal	10 mg/kg	–	314 ng/mL
CCC(=O)NC1CC=C(c2cc3c(Nc4cc5ncsc5cc4F)ncnc3s2)CC1 (racemic)	mouse	plasma	intravenous	10 mg/kg	–	4330 ng/mL
CCC1C(COc2nccc3cc(C(N)=O)c(OC)cc23)NC(=O)C1F (stereo not shown)	CD-1 mouse	plasma	oral	10 mg/kg	–	1670 ng/mL
CCC(=O)N1CCC=C(c2cc3c(Nc4cc5ncsc5cc4F)ncnc3s2)C1	mouse	plasma	oral	10 mg/kg	–	3590 ng/mL
CC(C)(C)c1cnc(CSc2cnc(NC(=O)C3CCN(C(=O)CCCCCCCN4Cc5cc6c(cc5C4)C(=O)N(C4CCC(=O)NC4=O)C6=O)CC3)s2)o1 (stereo not shown)	mouse	plasma	intravenous	2 mg/kg	–	280 ng/mL
Cc1cc(NC(=O)[C@H](O)c2cc(F)cc(F)c2)ccc1-c1cnc(N)c(C(=O)NC(C)C)c1	female nude mouse	plasma	oral	3 mg/kg	single dose	373 ng/mL
CC(=O)c1c(C)c2cnc(Nc3ccc(N4CCNCC4)cn3)nc2n(C2CCCC2)c1=O	mouse	serum	intraperitoneal	25 mg/kg	single dose	49000 ng/mL
O=S(=O)(N[C@H]1CCO[C@@H](C2c3ccc(F)cc3CCc3cc(F)ccc32)C1)c1ccc(OC(F)(F)F)cc1	mouse	plasma	oral	30 mg/kg	–	1970 ng/mL
CC(C)NC(=O)NC1CC=C(c2cc3c(Nc4cc5ncsc5cc4F)ncnc3s2)CC1 (racemic)	mouse	plasma	oral	10 mg/kg	–	1330 ng/mL
CN[C@H](CC(C)C)C(=O)N[C@H]1C(=O)N[C@@H](CC(N)=O)C(=O)N[C@H]2C(=O)N[C@H]3C(=O)N[C@H](C(=O)N[C@H](C(=O)N[C@H](CCCNC(=N)N)C(N)=O)c4cc(O)cc(O)c4-c4cc3ccc4O)[C@H](O)c3ccc(c(Cl)c3)Oc3cc2cc(c3O[C@@H]2O[C@H](CO)[C@@H](O)[C@H](O)[C@H]2O[C@H]2C[C@](C)(N)[C@H](O)[C@H](C)O2)Oc2ccc(cc2Cl)[C@H]1O	female CD-1 mouse	plasma	intravenous	10 mg/kg	single dose	23400 ng/mL
Fc1cccc(-n2cc(-c3ccccc3)nc2NCc2ccc(C(F)(F)F)c(Br)c2)c1	male CD-1 mouse	plasma	intraperitoneal	25 mg/kg	single dose	5460 ng/mL
Cn1c2cc([S+](C)[O-])sc2c2cnn(Cc3cccc(N)c3)c(=O)c21 (stereo not shown)	male BALB/c mouse	plasma	intraperitoneal	10 mg/kg	single dose	10900 ng/mL

A few entries again:
Compound	host	sample	route	dose	notes	Cmax
CC[C@H](C)/C=C/C=C/C=C/C(O)=C/C(=O)C(Cl)(Cl)Cl	female C57BL/6 mouse	plasma	oral	25 mg/kg	–	2.4 µM
O=C1CCC(N2C(=O)c3ccc(N4CCC(C(=O)N5CCC(CCN6CCC(CNC(=O)c7cccc(-c8noc(C(F)(F)F)n8)c7)(c7nc(-c8ccccc8)cs7)CC6)CC5)CC4)cc3C2=O)C(=O)N1 (stereo not shown)	CD-1 mouse	plasma	intraperitoneal	30 mg/kg	–	2600 ng/mL
CCC(=O)N1CCC=C(c2cc3c(Nc4cc5ncsc5cc4F)ncnc3s2)C1	mouse	plasma	oral	10 mg/kg	–	3590 ng/mL
O=C(OC(C(F)(F)F)C(F)(F)F)N1CCC(CNS(=O)(=O)c2ccc(Cl)cc2)CC1	male SCID mouse	brain	oral	10 mg/kg	–	2330 ng/mL
